Published values pooled from the literature.
“And” joins repeats or separate records; there may be more than shown. Numbers after ± are the reported error.
Aryl hydrocarbon receptor: Aryl hydrocarbon receptor (Danio rerio, UniProt Q9YGV3)
ABL1 Q252H: Tyrosine-protein kinase ABL1 (ABL1, Homo sapiens, UniProt P00519, Q252H)
UniProt P00519, sequence (whole entry, unmodified, looked up): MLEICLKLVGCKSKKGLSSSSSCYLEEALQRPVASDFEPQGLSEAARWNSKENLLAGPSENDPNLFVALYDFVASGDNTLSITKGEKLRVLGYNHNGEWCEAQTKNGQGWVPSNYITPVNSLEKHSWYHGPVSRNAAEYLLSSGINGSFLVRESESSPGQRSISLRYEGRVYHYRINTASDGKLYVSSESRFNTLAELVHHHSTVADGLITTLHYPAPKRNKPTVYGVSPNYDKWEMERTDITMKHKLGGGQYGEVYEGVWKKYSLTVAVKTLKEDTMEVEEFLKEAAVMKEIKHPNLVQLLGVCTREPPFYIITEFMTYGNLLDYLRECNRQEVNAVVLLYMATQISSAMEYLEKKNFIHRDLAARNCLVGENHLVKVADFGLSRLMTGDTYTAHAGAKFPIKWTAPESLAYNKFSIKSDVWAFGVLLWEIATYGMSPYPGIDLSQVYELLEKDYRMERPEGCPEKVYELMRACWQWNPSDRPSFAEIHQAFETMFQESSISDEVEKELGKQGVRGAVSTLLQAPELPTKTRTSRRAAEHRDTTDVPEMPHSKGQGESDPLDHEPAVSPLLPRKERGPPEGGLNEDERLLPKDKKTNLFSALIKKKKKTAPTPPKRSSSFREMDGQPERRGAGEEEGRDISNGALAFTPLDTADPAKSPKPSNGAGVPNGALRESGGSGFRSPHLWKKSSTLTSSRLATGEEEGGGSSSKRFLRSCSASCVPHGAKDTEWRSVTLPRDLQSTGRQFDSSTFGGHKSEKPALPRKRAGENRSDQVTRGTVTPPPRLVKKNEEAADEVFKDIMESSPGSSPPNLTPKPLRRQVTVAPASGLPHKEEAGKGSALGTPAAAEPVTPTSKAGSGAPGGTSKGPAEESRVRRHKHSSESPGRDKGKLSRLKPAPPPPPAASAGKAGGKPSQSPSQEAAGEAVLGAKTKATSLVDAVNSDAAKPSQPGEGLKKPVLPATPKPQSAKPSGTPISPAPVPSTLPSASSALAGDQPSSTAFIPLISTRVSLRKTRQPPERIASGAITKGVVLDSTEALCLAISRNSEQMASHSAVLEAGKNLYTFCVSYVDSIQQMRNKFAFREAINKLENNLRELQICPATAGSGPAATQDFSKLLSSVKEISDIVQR
ABL1 F317I: Tyrosine-protein kinase ABL1 (ABL1, Homo sapiens, UniProt P00519, F317I)
HDAC6 ZnF-UBD domain: Protein deacetylase HDAC6, ZnF-UBD domain (HDAC6, Homo sapiens, UniProt Q9UBN7)
UniProt Q16774, sequence (whole entry, looked up): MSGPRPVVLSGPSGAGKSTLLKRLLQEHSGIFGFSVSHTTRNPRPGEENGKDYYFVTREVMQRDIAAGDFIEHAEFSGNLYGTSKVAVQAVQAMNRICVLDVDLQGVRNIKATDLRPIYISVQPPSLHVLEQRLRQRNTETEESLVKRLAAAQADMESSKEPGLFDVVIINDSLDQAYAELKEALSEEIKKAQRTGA
UniProt P51575, sequence (whole entry, unmodified, looked up): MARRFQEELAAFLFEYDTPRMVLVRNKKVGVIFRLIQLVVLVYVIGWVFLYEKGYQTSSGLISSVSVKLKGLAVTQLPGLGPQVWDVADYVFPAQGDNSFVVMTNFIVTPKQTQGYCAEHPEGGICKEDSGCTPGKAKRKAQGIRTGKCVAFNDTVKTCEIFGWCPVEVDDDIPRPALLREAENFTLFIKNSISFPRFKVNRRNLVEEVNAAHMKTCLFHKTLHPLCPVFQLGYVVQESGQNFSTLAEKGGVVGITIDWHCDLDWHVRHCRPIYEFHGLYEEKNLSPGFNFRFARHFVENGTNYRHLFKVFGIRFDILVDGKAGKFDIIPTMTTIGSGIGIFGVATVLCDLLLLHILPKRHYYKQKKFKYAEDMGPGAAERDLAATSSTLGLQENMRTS
UniProt P11388, sequence (whole entry, looked up): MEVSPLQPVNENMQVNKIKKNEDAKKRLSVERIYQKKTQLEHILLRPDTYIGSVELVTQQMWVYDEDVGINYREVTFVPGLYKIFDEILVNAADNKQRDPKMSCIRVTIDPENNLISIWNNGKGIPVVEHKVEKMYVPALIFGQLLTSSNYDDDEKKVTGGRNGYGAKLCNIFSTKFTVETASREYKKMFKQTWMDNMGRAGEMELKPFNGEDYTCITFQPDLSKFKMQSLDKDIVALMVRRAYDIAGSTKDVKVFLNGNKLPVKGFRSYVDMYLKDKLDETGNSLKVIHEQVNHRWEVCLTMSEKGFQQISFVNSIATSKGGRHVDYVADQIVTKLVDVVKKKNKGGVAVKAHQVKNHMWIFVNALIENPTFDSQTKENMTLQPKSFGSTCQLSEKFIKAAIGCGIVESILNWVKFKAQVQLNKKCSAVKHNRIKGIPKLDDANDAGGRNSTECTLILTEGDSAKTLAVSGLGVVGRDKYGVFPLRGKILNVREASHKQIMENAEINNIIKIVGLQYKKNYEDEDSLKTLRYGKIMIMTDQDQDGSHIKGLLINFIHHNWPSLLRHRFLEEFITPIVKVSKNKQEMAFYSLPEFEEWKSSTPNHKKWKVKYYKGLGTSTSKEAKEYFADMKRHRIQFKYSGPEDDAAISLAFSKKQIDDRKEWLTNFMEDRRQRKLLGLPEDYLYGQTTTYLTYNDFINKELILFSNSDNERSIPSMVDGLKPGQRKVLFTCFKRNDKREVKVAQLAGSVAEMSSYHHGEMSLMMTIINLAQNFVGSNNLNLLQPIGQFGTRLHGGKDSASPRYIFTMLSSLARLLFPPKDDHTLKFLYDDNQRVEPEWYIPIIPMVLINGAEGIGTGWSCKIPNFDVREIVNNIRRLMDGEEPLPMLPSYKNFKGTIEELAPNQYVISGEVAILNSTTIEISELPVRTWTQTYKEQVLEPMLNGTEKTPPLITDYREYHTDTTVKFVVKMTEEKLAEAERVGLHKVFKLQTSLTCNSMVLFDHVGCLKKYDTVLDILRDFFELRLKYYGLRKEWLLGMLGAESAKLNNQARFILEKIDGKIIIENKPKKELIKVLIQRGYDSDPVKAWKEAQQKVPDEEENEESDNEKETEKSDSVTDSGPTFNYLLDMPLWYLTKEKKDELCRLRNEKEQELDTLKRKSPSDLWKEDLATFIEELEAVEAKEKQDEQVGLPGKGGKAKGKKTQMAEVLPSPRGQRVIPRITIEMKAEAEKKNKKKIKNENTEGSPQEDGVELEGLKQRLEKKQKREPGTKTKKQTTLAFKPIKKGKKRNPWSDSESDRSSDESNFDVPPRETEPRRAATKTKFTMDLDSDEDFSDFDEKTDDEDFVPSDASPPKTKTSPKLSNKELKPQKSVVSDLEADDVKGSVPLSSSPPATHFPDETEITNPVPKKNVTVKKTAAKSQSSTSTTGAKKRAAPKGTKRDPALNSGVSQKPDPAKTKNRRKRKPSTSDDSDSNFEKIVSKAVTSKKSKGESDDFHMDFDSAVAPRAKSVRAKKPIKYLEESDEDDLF
UniProt Q13133, sequence (whole entry, looked up): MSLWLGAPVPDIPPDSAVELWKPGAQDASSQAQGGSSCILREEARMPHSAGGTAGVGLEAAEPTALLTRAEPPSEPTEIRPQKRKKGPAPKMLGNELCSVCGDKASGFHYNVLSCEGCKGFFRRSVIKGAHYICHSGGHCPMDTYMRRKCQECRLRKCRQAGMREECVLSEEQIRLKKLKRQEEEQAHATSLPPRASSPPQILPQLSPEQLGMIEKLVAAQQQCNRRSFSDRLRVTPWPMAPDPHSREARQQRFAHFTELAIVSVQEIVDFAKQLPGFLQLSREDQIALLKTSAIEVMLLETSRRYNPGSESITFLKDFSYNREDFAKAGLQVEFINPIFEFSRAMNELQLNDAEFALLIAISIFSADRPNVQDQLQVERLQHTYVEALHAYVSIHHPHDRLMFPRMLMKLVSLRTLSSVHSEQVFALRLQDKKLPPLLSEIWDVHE
UniProt Q9UBN7, sequence (whole entry, looked up): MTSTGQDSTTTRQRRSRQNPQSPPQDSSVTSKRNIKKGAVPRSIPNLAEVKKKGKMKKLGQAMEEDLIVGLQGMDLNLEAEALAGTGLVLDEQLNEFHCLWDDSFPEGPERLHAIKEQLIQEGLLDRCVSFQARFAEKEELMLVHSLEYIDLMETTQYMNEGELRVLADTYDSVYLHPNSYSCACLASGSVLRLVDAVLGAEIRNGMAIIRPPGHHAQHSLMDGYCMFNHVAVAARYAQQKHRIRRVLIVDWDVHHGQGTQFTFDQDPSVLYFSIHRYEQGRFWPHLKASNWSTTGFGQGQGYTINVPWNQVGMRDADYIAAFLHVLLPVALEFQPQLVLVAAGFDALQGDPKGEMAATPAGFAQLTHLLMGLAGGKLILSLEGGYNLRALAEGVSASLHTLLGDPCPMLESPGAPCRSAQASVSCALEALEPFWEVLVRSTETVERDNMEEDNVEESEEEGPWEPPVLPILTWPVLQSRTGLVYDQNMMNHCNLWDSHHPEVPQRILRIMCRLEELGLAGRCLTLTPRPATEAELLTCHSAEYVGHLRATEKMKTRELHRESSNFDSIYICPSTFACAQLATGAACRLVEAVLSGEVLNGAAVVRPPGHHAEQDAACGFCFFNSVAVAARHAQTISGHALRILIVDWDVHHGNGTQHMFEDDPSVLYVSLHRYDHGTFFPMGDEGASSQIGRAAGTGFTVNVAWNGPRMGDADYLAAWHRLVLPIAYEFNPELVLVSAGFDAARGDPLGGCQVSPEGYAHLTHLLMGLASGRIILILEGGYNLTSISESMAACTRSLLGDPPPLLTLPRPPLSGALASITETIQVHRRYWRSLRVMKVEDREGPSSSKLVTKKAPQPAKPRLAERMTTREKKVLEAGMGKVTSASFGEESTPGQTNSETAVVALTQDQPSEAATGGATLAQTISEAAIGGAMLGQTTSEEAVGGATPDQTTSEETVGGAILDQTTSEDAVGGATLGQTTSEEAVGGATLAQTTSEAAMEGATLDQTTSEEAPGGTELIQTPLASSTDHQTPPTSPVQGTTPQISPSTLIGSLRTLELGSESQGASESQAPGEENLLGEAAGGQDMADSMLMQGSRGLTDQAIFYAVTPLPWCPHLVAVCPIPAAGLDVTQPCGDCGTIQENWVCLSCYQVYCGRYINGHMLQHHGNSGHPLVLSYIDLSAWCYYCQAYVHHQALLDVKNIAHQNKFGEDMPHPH
UniProt Q9X6J6, sequence (whole entry, looked up): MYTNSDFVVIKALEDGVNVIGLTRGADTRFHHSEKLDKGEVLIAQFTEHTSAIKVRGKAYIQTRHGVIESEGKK

Cn1cc(-c2ccc(-c3cncc(Cl)c3N3CCC4(CCNC4=O)CC3)cc2)cn1  fold change in expression (COLO 205; microarray, refers to: KITLG; concentration not given, 2 h, gene set MGF; reference: untreated cells): 1.54
c1ccc2c(c1)-c1cccc3c1c-2cc1ccccc13  fold change (Aryl hydrocarbon receptor; reporter gene, agonist, luciferase reporter; ZF-4; 30000 µM; reference: vehicle control): 7.85
COc1cc(Nc2ncc3c(n2)-c2ccc(Cl)cc2C(c2c(F)cccc2OC)=NC3)ccc1C(=O)O  remaining activity (HIPK4; kinase activity; 1 µM): 99%
CO[C@H]1O[C@H](COS(=O)(=O)O)[C@@H](O[C@@H]2O[C@@H](C(=O)O)[C@@H](O[C@H]3O[C@H](COS(=O)(=O)O)[C@@H](O[C@@H]4O[C@H](C(=O)O)[C@@H](O[C@H]5O[C@H](COS(=O)(=O)O)[C@@H](O)[C@H](O)[C@H]5NS(=O)(=O)O)[C@H](O)[C@H]4O)[C@H](OS(=O)(=O)O)[C@H]3NS(=O)(=O)O)[C@H](O)[C@H]2OS(=O)(=O)O)[C@H](O)[C@H]1NS(=O)(=O)O  binding free energy ΔG (Beta-2-glycoprotein 1, domain V (APOH, Homo sapiens, UniProt P02749, V266L); isothermal titration calorimetry; 298 K, together with: 150 mM NaCl): -6030 cal/mol
N[C@@H]1CCN(c2nccc(-c3cnn4ncccc34)n2)C1  remaining binding (ABL1 Q252H; KINOMEscan; 1 µM): 91%
O=c1nc(SCc2cc(F)cc(C(F)(F)F)c2)nc(SCc2ccc3nc(Cl)ccc3c2)[nH]1  ATP hydrolysis rate (TOP2A (Homo sapiens, UniProt P11388); ATPase activity; 15.6 µM, together with: ATP 0.5 mM): 1.94 µM/min and 1.45 µM/min
Cn1c2c(c3ccc(Cl)c(Cl)c31)C(C#N)C1(CCOCC1)NC2=O (stereo not shown)  delta Tm (Serine/threonine-protein kinase VRK3 (VRK3, Homo sapiens, UniProt Q8IV63); thermal stability, thermal shift; 10 µM; higher = stronger binding): -0.1 °C
N[C@@H](Cc1c[nH]c2ccccc12)C(=O)O  binding stoichiometry (Transcription attenuation protein MtrB (mtrB, Geobacillus stearothermophilus, UniProt Q9X6J6); isothermal titration calorimetry; concentration not given, 25 °C, one-site model): 11.05 ± 0.03
F[C@@H]1CCN(c2nccc(-c3cnn4ncccc34)n2)C1  remaining binding (ABL1 F317I; KINOMEscan; 1 µM): 100%
CN1C(=O)CCC(N2C(=O)c3cccc(N)c3C2=O)C1=O (stereo not shown)  Dmax (Sal-like protein 4 (SALL4, Homo sapiens, UniProt Q9UJQ4); degrader, immunofluorescence; C33): inactive
CC(=C/C(=O)O)/C=C/C=C(\C)C1C=C2C(C)(C)CCCC2(C)O1 (stereo not shown)  Pearson correlation coefficient (Rhodopsin (RHO, Homo sapiens, UniProt P08100, P23H); ER retention, immunostaining co-localization, refers to: opsin with calnexin; COS-7 transfected P23H; 10.00 µM): 0.65
N#Cc1ccc(C[C@H](NC(=O)c2cc3cc([N+](=O)[O-])ccc3[nH]2)C(=O)N2CCc3ccccc32)cc1  activity (FPR2 (Homo sapiens, UniProt P25090); cell-based; concentration not given): inactive
CC[C@H](C)[C@H](NC(=O)[C@H](CCCNC(=N)N)NC(=O)[C@H](Cc1c[nH]cn1)NC(=O)[C@H](CCCNC(=N)N)NC(=O)[C@H](CC(=O)O)NC(=O)[C@H](CC(=O)O)NC(=O)[C@@H](NC(=O)[C@H](CC(=O)O)NC(=O)[C@@H]1CCCN1C(=O)[C@@H](N)CC(C)C)[C@@H](C)O)C(=O)N[C@@H](CCC(=O)O)C(=O)N[C@@H](CCC(=O)O)C(=O)N[C@@H](CCCCN)C(=O)N[C@@H](CCCNC(=N)N)C(=O)N[C@@H](CCCCN)C(=O)N[C@@H](CCCNC(=N)N)C(=O)N[C@H](C(=O)N[C@@H](Cc1ccc(O)cc1)C(=O)N[C@@H](CCC(=O)O)C(=O)N[C@H](C(=O)N[C@@H](Cc1ccccc1)C(=O)N[C@@H](CCCCN)C(=O)N[C@@H](CO)C(=O)N[C@@H](C)C(=O)N[C@@H](CCSC)C(=O)N[C@@H](CCCCN)C(=O)N[C@@H](CCCCN)C(=O)N[C@@H](CO)C(=O)N1CCC[C@H]1C(=O)N[C@@H](Cc1ccccc1)C(=O)N[C@@H](CC(N)=O)C(=O)NCC(=O)N1CCC[C@H]1C(=O)O)[C@@H](C)O)[C@@H](C)O  ΔG (NF-kappa-B inhibitor alpha (Homo sapiens, UniProt P25963); binding, ITC; pH 7.5, 293 K, 50 mM NaCl): -8.4 ± 0.02 kcal/mol
Cc1cc2c(cc1N1C(=O)c3cccc4c(Cl)ccc(c34)C1=O)n(C)c(=O)n2C  delta Tm (EP300 (Homo sapiens, UniProt Q09472); 10 µM): 3.5 °C
Cc1cccc2c1ccc1cc(C(C)C)ccc12  fold change (Aryl hydrocarbon receptor; reporter gene, agonist, luciferase reporter; ZF-4; 370.37 µM; reference: vehicle control): 1.55
Nc1ncnc2c1ncn2[C@@H]1O[C@H](COP(=O)(O)CP(=O)(O)OP(=O)(O)O)[C@@H](O)[C@H]1O  calcium influx (P2X purinoceptor 1 (P2RX1, Homo sapiens, UniProt P51575, F188L); calcium influx; 10 µM; reference: ionomycin response): 100% and 98.7%
Nc1nc(CC(=O)O)cs1  Kd (HDAC6 ZnF-UBD domain): > 1 mM
COc1cc(C#CC(=O)c2ccccc2)ccc1O  binding (rhlR (Pseudomonas aeruginosa, UniProt P54292); receptor binding; concentration not given, 1.5 h, together with: BHL at 1:1 ratio; reference: control): 52%
NCCCS(=O)(=O)O  normalised MST signal (SLC6A6 (Homo sapiens, UniProt P31641, Y138A); binding, microscale thermophoresis; 122 nM, room temperature, together with: 50 nM labelled protein; higher = more binding): -0.0762
COC(=O)c1cccc(C(=O)c2c[nH]c3ccc(Cl)cc23)n1  Emax (AHR (Homo sapiens, UniProt P35869); reporter gene, agonist, XRE luciferase; HepG2; reference: ITE): 70 ± 8%
CN1CCN(c2ccc(Nc3nccc(-c4cccc([N+](=O)[O-])c4)n3)cc2C(F)(F)F)CC1  percent of control (ABL1 F317I; 10 µM): 100% and 55%
CC[C@@H]1[C@H](F)C(=O)N[C@@H]1COc1nccc2cc(C(N)=O)c(OC)cc12  inhibition (Aurora kinase A (AURKA, Homo sapiens, UniProt O14965); ATP probe binding, KiNativ profiling, refers to: Lys2 probe site; THP-1 cell lysate; 0.04 mM): -6.4%
O=C(c1ccc(Nc2nccc(-c3ccc(Cl)s3)n2)cc1)N1CCC(N2CCCC2)CC1  ligand efficiency (Protein kinase 6 (Plasmodium falciparum, UniProt Q8IDW1); binding, KinaseSeeker split luciferase): 0.3
C=CC(=O)N1CCC(COCC(=O)N2CCN(c3nc(-c4cnc(N)nc4C(F)F)nc(N4CCOC[C@@H]4C)n3)CC2)CC1  remaining binding (NEK9 (Homo sapiens, UniProt Q8TD19); KINOMEscan; 1 µM): 74%
C=C1C(=O)O[C@@H]2C[C@@]3(C)CCCC(=C)[C@@H]3C[C@H]12  activation (NR1H3 (Homo sapiens, UniProt Q13133); reporter gene, Gal4 hybrid reporter; 10 µM; reference: vehicle): 1.23 fold
O=S(=O)(O)O  reaction velocity (GUK1 (Homo sapiens, UniProt Q16774); enzyme activity, NADH-coupled; 10 mM, together with: ATP 500 µM): 0.0604 µM/s and 0.0774 µM/s and 0.0684 µM/s
O=C(O)Cc1nc2ccccc2[nH]1  Kd (HDAC6 ZnF-UBD domain): > 1 mM
Nc1nnc(-c2ccccc2O)cc1N1CCN(Cc2ccc(OCCOCCNc3cccc4c3C(=O)N(C3CCC(=O)NC3=O)C4=O)c(F)c2)CC1 (stereo not shown)  decrease in protein level (SMARCA2 (Homo sapiens, UniProt P51531); immunoblot; mouse, NCI-H322 xenograft, tumour lysate; dose not given, end of study; reference: vehicle): 76%
CCCCC[S+]([O-])c1n[nH]c(N)n1 (stereo not shown)  fold enrichment (Huntingtin (HTT, Homo sapiens, UniProt P42858); binding, affinity selection mass spectrometry; reference: other proteins in batch): 0.874
COc1ccnn2ncc(-c3ccnc(N(C)C)n3)c12  remaining binding (ABL1 Q252H; KINOMEscan; 1 µM; reference: control): 85%
CCCCNc1c(C(=O)OCC)c(C)nc2c1cnn2CC.Cl  agonist score (GABA-A receptor; alpha-1/beta-2/gamma-2 (Rattus norvegicus, UniProt P18508+P62813+P63138); membrane potential, agonist, QP-DHM fluorescence; HEK293 expressing GABAA; 10 µM; reference: 10 µM GABA, direction not given): 0.58
